Measurements collected from several papers.
Every numbered part comes from another study and shows a few of its results, in no order. Substitutions count along the parent as printed.

Set 1 — target: CCND2, cyclin fold, Cln2 fusion (human); technique: yeast growth competition, sequencing; matrix: yeast; setting: weak parent motif; relative to: not given; reading: higher = stronger binding
Parent: RBL2 docking peptide (human); STTRRRLFVENDS; partner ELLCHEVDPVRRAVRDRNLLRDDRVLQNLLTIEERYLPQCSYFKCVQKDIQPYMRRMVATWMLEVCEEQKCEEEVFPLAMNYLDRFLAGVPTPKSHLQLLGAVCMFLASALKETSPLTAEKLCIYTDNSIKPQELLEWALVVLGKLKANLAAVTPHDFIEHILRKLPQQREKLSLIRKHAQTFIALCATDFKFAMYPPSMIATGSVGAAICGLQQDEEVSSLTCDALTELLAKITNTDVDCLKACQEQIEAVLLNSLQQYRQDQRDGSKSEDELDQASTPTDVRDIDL
For `V9Q`, “normalised enrichment score” read -0.257.
For `N11V`, “normalised enrichment score” read 0.202.
For `T3A`, “normalised enrichment score” read -0.0128.
`S13E`: “normalised enrichment score” 0.36.
For `E10D`, “normalised enrichment score” read 0.61.
`V9P` — result for “normalised enrichment score”: -0.135.
Under “normalised enrichment score”, `R5M` is recorded as 0.0945.
For `S1V`, “normalised enrichment score” read -0.0592.
Under “normalised enrichment score”, `T3V` is recorded as 0.368.
Under “normalised enrichment score”, `S13T` is recorded as 0.131.

Set 2 — technique: RNA Bind-n-Seq; form: RNA; matrix: in vitro; concentration: 200 nM; setting: whole 134-nt RNA, ends assumed; together with: 150 mM LiCl; relative to: input library; reading: higher = stronger binding; each molecule: 7-deaza-guanosine replaces G
Target: Fragile X messenger ribonucleoprotein 1, C-terminal low-complexity region (Fmr1, Mus musculus, UniProt P35922)
All sequences stand within: GGGAGUUCUACAGUCCGACGAUC … UGGAAUUCUCGGGUGUCAAGG
The log2 enrichment of `CUCAAGUCCUGUGCUACACAUCGUAUGUACCGAAUCGGGGUGGUGGGGUGGGGAAAGUAUUAUGUUACGCCGUUCGGAUCUGCACUUCCA` is reported as -0.938.
For `UGGGAGGUGGAUUUUGUUUAUUUUUUUAGCUCAUUACCAGGGGUGGGAAUUUUUUUUUAAUAUGUGUCAUGAAUAAAGUUGUUUUUGAAA`, the log2 enrichment was 0.78.
For `ACCAUGCAGGUGGGCAUCUUUGGGAAGUGGGGCAAGGGGGGGAUAGGGAGGGGGGUAACACUUAGGGAACAGGUGGUCCCAGGUCGUUUC`, the log2 enrichment was 1.6.
For `GUCCUGUGCUACACAUCGUAUGUACCGAAUCGGCCCCCCGGGGCCCCCCGGCCCCCCGGAAAGUAUUAUGUUACGCCGUUCGGAUCUGCA`, the log2 enrichment was -1.67.
For `AGUCCUGUGCUACACAUCGUAUGUACCGAAUCGGAAAAAAAGGUUUUUGGAAAAAGGAAAGUAUUAUGUUACGCCGUUCGGAUCUGCACU`, the log2 enrichment was -3.04.
`UCAAGUCCUGUGCUACACAUCGUAUGUACCGAAUCGGGAAGGGGAAGGGAAGGGAAAGUAUUAUGUUACGCCGUUCGGAUCUGCACUUCC` has a log2 enrichment of -0.997.
The log2 enrichment of `UCCUGUGCUACACAUCGUAUGUACCGAAUCGGGUUUUUUUGGGUUUGGGAAAAAAAGGGAAAGUAUUAUGUUACGCCGUUCGGAUCUGCA` is reported as -1.29.
`AGUCCUGUGCUACACAUCGUAUGUACCGAAUCGGGGAGGGGUGGGGAAAAAAAGGGGAAAGUAUUAUGUUACGCCGUUCGGAUCUGCACU` has a log2 enrichment of -0.0173.
The log2 enrichment of `AGUCCUGUGCUACACAUCGUAUGUACCGAAUCAAAUUUUUAAAUUUUUAAACCCAAAAAAGUAUUAUGUUACGCCGUUCGGAUCUGCACU` is reported as -0.536.

Set 3 — technique: RNA Bind-n-Seq; form: RNA; matrix: in vitro; concentration: 365 nM; relative to: no-protein control; reading: higher = stronger binding
Target: RNA binding protein fox-1 homolog 2, RRM domain, GST-SBP tag (RBFOX2, Homo sapiens, UniProt O43251-10, residues 100-194)
Setting: natural RNA segment, single round, ends assumed
All sequences stand within: GGGAGUUCUACAGUCCGACGAUC … UGGAAUUCUCGGGUGCCAA
Residues (chain): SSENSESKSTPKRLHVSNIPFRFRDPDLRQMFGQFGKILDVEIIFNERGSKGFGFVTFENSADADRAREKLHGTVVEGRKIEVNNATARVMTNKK
`GUGAUGUUUUUAAAUGAAGAAAUGUGUGGAUAUUUAAGUGUGCUGCUCCCUCUUGUCUUGAAACAGUUUGAGUAAGAAAGUCUUGCUGUAAAUGCUGCCCUCUGCCGCCU`: “RBNS enrichment (R)” 1.18.
Under “RBNS enrichment (R)”, `AACUGCAGGUCAUCCUCGCAUCAGCCAAGGCUGUGGUGCUGUUGAUGCCGCAGUUGGACAGCAUAGGACGGCUUGGUUCUGUUUCAUUGUGUUUGACAAUGUUGCAGUUU` is recorded as 0.295.
Under “RBNS enrichment (R)”, `AAAAGAGUGCUAUGAUGUUCUUAGCAUUUGCUAUCAUGCCUAUUUUUAUCUAGAUUUUUAAAUGUAGCUUGUCAUAACAAAAUUUUAAUUACAAUUGGCUUGUAUGAGAA` is recorded as 4.52.
For `GCAGAUACGCUAGGUCUGCAGUUUGAUAUUUUGUAAAAUCCUCAAAAGCAAGGGAAGUGGCUACUUUGGAAUGCUCUUUAUAAUUUUUAUAAGCUGAAUUUUAUAUGUUA`, “RBNS enrichment (R)” read 1.13.
`GCUGGAGUUUGGGGGAAGGGGAUGGCUGGAUGUGCUCCAGGCCAUGCUGGAGGUACCCCCGAGGCACAGGCACUGCCCGUUCCCCUUGCCUGGGCUUCAGGCCUUCUGGC` — result for “RBNS enrichment (R)”: 0.566.
Under “RBNS enrichment (R)”, `UGUUGGAUACUUAUAAUCAAAACUUUUACUAGGGUAUUGAAUAAAUCUAGUCUUACUAGAAAAUAAAGGAGCUGUUUUGUGGCUUUGUUUGACAGGUCUUCAGUAAGAAU` is recorded as 0.642.
For `UGCUGAAUGACAUUAUUUGAGCUAUUUAAAGCUUACUUUAGUAUGAACUAAAUGAAGGUUAAAACAUGCUUUAGAAAAAUGCACUGAUCUCCGCACUGUGUGUACAGUAU`, “RBNS enrichment (R)” read 0.344.
Under “RBNS enrichment (R)”, `CAAGUAAUUUCCUGAGCUAAAUGCUUCAUUGAAAGCUUCAAAGUUUAUAUGCCUGGUGCACAGUGCUUAGAAGUAAGCAAUUCCCAGGUCAUAGCUCAAGAAUUGUUAGC` is recorded as 0.264.

Other studies, line by line
`PhoQ, residues 284 288 289 292 302 303 ALSMDL` has a fold induction of 14.4 (PhoP, residues 12 14 15 18 19 YHFSH (Escherichia coli, UniProt P23836); Sort-seq, measured: YFP reporter; E. coli; PhoQ-PhoP variant library, together with: 10 µM Mg2+; relative to: high Mg2+ state, higher = stronger signaling).

Excerpt of the above (set 3):
Under “RBNS enrichment (R)”, `AACUGCAGGUCAUCCUCGCAUCAGCCAAGGCUGUGGUGCUGUUGAUGCCGCAGUUGGACAGCAUAGGACGGCUUGGUUCUGUUUCAUUGUGUUUGACAAUGUUGCAGUUU` is recorded as 0.295.
Under “RBNS enrichment (R)”, `AAAAGAGUGCUAUGAUGUUCUUAGCAUUUGCUAUCAUGCCUAUUUUUAUCUAGAUUUUUAAAUGUAGCUUGUCAUAACAAAAUUUUAAUUACAAUUGGCUUGUAUGAGAA` is recorded as 4.52.
For `GCAGAUACGCUAGGUCUGCAGUUUGAUAUUUUGUAAAAUCCUCAAAAGCAAGGGAAGUGGCUACUUUGGAAUGCUCUUUAUAAUUUUUAUAAGCUGAAUUUUAUAUGUUA`, “RBNS enrichment (R)” read 1.13.
`GCUGGAGUUUGGGGGAAGGGGAUGGCUGGAUGUGCUCCAGGCCAUGCUGGAGGUACCCCCGAGGCACAGGCACUGCCCGUUCCCCUUGCCUGGGCUUCAGGCCUUCUGGC` — result for “RBNS enrichment (R)”: 0.566.
